Results of several laboratories.
Each line is one published result; not all experiments were run side by side. Numbers after ± are the reported error. ≈ marks a conversion by molar mass, not a printed value.
cyp121: Mycocyclosin synthase (cyp121, Mycobacterium tuberculosis, UniProt P9WPP7)

Sequences of proteins named here, by UniProt entry; tags and fusion partners are left off.
UniProt P9WPP7, whole entry: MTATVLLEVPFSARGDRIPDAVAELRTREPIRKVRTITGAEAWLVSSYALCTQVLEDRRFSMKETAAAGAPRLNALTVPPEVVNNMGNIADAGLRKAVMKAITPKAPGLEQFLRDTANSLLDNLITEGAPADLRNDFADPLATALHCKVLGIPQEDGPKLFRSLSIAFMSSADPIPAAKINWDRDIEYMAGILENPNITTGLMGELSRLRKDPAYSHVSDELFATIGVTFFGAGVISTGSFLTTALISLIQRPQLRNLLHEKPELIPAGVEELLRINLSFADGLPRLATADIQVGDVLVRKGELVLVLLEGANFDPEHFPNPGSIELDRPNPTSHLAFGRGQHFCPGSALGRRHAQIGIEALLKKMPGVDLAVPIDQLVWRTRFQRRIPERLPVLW

For `Cc1ccccc1S(=O)(=O)Nc1cccc(C(=O)NC2CCN(c3ncnc4[nH]cnc34)CC2)c1`, the viability was 104% (A549-ACE2; 0.03048 µM).
The inhibition of `CC(C)C(C(=O)N(Cc1ccc(C2CCCCC2)cc1)c1ccc(C(=O)O)cc1)N(C)S(=O)(=O)c1c(F)c(F)c(F)c(F)c1F` (stereo not shown) is reported as greater than 60% (cancer-associated fibroblasts; gene expression, refers to: survivin; concentration not given).
For `CCCCCCCCCCCCNC(=O)N[C@H](C(=O)N[C@H]1/C=C/CCNC(=O)/C=C/[C@H](C)NC1=O)C(C)C`, the EC50 was 0.0481 ± 0.0087 µM (MM.1S; cell viability, CellTiter-Glo; 24 h).
`NC1=NC2(CCCCC2)N(c2ccc(OCc3cn(CCCCOc4ccc5ccc(=O)oc5c4)nn3)cc2)C(N)=N1` gave an MIC50 of 3.2 µM (Mycobacterium bovis BCG; resistant, thyA H147Y).
`CCc1nc(N)nc(N)c1C#C[C@@H](C)c1cc(OC)cc(-c2ccncc2)c1` gave an MIC of 0.625 µg/mL (≈ 1.67 µM) (Staphylococcus aureus; broth microdilution; F98Y DHFR mutant; 18 h, 37 °C).
For `Oc1ccc(-c2ccc(Cn3ccnc3)c3ccccc23)cc1`, the Kd was 1.1 ± 0.22 µM (cyp121; binding).
`C[C@H](CS)C(=O)N[C@H](Cc1c[nH]c2ccccc12)C(=O)O` — result for “MIC of meropenem”: 0.5 µg/mL (Enterobacter aerogenes; VIM-1 producing; 50 µM, added: meropenem).
`NC[C@@H](NC[C@@H]1CCCN1C[C@@H](CO)NC[C@@H](NCCc1ccc(Cl)c(Cl)c1)c1ccccc1)c1ccccc1` gave an IC50 of greater than 24 µM (Klebsiella pneumoniae; bacterial growth; compound alone).
With `COc1ccc(CN[C@@H]2CO[C@H](C(c3ccccc3)c3ccccc3)C[C@H]2O)cc1` the inhibition was 20.5% (benzodiazepine site, rat brain; radioligand binding; rat brain; 10 µM, added: [3H]flunitrazepam).
`Nc1cc(S(=O)(=O)O)cc2cc(S(=O)(=O)O)cc(O)c12`: “MIC of ampicillin” 512 µg/mL (Escherichia coli; bacterial growth, broth microdilution; expressing OXA-48; 8 µg/mL, added: ampicillin; MIC of ampicillin).
`O=C(NC1CCN(c2ncnc3[nH]cnc23)CC1)c1cccc(NS(=O)(=O)c2ccc(Cl)cc2)c1` gave a viability of 69.4% (A549-ACE2; 200 µM).
With `Cc1ccc(-c2csc(NP(=O)(O)OCC3OC(n4c[n+](Cc5ccccc5)c5c(=O)[nH]c(NC(=O)c6ccccc6)nc54)C4OC(C)(C)OC34)n2)cc1` (stereo not shown) the protein level was 125 (MCF7; refers to: β-actin; concentration not given, unit not given; reference: reference protein).
`CN1CC[C@]23c4c5ccc(O)c4O[C@H]2c2ncc(-c4ccc(Cl)cc4)cc2C[C@@]3(OCCCc2ccccc2)[C@H]1C5` — result for “days to zero efficacy”: 2.1 days (tolerance; CD-1 mouse, chemotherapy-induced neuropathy; sc, 0.32 mg/kg twice daily, 4 days).
`CCC(c1ccc(-c2ccc(O)c(Cl)c2)cc1)n1ccnc1` (stereo not shown) gave a Kd of 19.4 ± 13.4 µM (cyp121; binding).
For `O=C(O)c1ccc(-c2cccc(C(=O)O)c2)cc1`, “MIC of ampicillin” read 256 µg/mL (Escherichia coli; bacterial growth, broth microdilution; expressing OXA-48; 64 µg/mL, added: ampicillin; MIC of ampicillin).
With `NCCNCCSc1ccccc1` the CL/F was 320 mL/min/kg (Swiss albino mice, female, plasma; oral, 400 mg/kg).
`C=CC(=O)Nc1cc(-n2c(=O)ccc3cnc4ccc(-c5cn[nH]c5)cc4c32)ccc1C` — result for eIF4E phosphorylation: “decreased” (Ramos; western blot, refers to: eIF4E Ser209 phosphorylation; 1 µM).
With `Cc1ccc(-c2csc(NP(=O)(O)OCC3OC(n4cnc5c(=O)[nH]c(NC(=O)c6ccccc6)nc54)C4OC(C)(C)OC34)n2)cc1` (stereo not shown) the IC50 was greater than 100 µM (HepG2; cell growth, SRB).
`CC[C@H](C)[C@H](NC(=O)[C@H](C)NC(=O)[C@H](CCC(=O)O)NC(=O)[C@H](CCC(=O)O)NC(=O)[C@H](CC(C)C)NC(=O)[C@H](CCCCN)NC(=O)[C@H](CCCCN)NC(=O)[C@H](CCSC)NC(=O)[C@H](CCC(=O)O)NC(=O)[C@H](Cc1ccc(O)cc1)NC(=O)[C@H](CCC(=O)O)NC(=O)[C@H](CC(C)C)NC(=O)[C@H](CC(=O)O)NC(=O)[C@H](CC(C)C)NC(=O)[C@H](Cc1ccccc1)NC(=O)[C@H](Cc1ccc(O)cc1)NC(=O)[C@@H](NC(=O)[C@H](CC(N)=O)NC(=O)[C@@H](NC(=O)[C@H](CCC(N)=O)NC(=O)[C@H](CC(=O)O)NC(=O)[C@H](CC(C)C)NC(=O)[C@@H](N)CO)[C@@H](C)CC)C(C)C)C(=O)N[C@@H](CCCCN)C(=O)N[C@@H](CCCCN)C(=O)N[C@@H](CC(C)C)C(=O)N[C@@H](CCC(=O)O)C(=O)N[C@@H](CCC(=O)O)C(=O)N[C@@H](C)C(=O)N[C@@H](Cc1ccc(O)cc1)C(=O)N[C@H](C(=O)N[C@@H](CC(=O)O)C(=O)N[C@@H](CC(C)C)C(=O)N[C@@H](CCCCN)C(=O)N[C@@H](CCC(=O)O)C(=O)N[C@@H](CC(C)C)C(=O)O)[C@@H](C)CC` has an IC50 of 0.298 µM (HCoV-OC43; viral infection, inhibitor, immunostaining; HCT-8; 2 days, dual mutations).
For `NC[C@@H](NC[C@@H]1CCCN1C[C@@H](CO)NC[C@@H](NCCc1ccc(-c2ccccc2)cc1)c1ccccc1)c1ccccc1`, “potentiation of amikacin” read 1.3 fold (Klebsiella pneumoniae; bacterial growth; 8 µM, fold shift of IC50, added: amikacin).
`Cc1c(C(=O)NN2CCCCC2)nn(-c2ccc(Cl)cc2Cl)c1-c1ccc(CCCCCBr)cc1`: “minimum effective dose” 30 mg/kg (mice, food-deprived; i.p., 1 h intake, significant food intake decrease).
`O=S(=O)(O)c1ccc2cc(S(=O)(=O)O)ccc2c1` — result for “MIC of ampicillin”: 256 µg/mL (Escherichia coli; bacterial growth, broth microdilution; expressing OXA-48; 8 µg/mL, added: ampicillin; MIC of ampicillin).
For `NC[C@@H](NC[C@@H]1CCCN1C[C@@H](CO)NC[C@@H](NCCC12CC3CC(CC(C3)C1)C2)c1ccccc1)c1ccccc1`, “potentiation of amikacin” read 1.4 fold (Klebsiella pneumoniae; bacterial growth; 8 µM, fold shift of IC50, added: amikacin).
The MIC90 of `CO[C@H]1[C@H](O[C@H]([C@H]2O[C@@H](n3ccc(=O)[nH]c3=O)[C@H](O)[C@@H]2O)[C@H](NCCCNC(=O)[C@@H](NC(=O)[C@@H](NC(=O)N[C@H](C(=O)O)C(C)C)[C@@H]2CCNC(=N)N2)[C@@H](OC(=O)CCCCCCCCCCCCN(O)C(=N)N)C(C)C)C(N)=O)O[C@H](CN)[C@H]1O` is reported as greater than 35 µg/mL (Bacillus cereus; alamar blue; NRRL B-568).
`CC(CCN[C@H](CN[C@H](CO)CN1CCC[C@H]1CN[C@H](CN)c1ccccc1)c1ccccc1)c1ccccc1` (stereo partly shown) — result for “potentiation of amikacin”: 1.6 fold (Escherichia coli; bacterial growth; 8 µM, fold shift of IC90, added: amikacin).
`CO[C@H]1[C@H](O[C@H]([C@H]2O[C@@H](n3ccc(=O)[nH]c3=O)[C@H](O)[C@@H]2O)[C@H](NCCCNC(=O)[C@@H](NC(=O)[C@@H](NC(=O)N[C@H](C(=O)O)C(C)C)[C@@H]2CCNC(=N)N2)[C@@H](OC(=O)CCCCCCCCCCCCNC(=N)N)C(C)C)C(N)=O)O[C@H](CN)[C@H]1O` has an MIC50 of greater than 35 µg/mL (Candida glabrata; alamar blue; DSY565).
With `CCc1nc(N)nc(N)c1C#CC(C)c1cc2c(c(-c3ccc(CC(=O)O)cc3)c1)OCO2` (stereo not shown) the IC50 was greater than 200 µg/mL (MCF-10A; cytotoxicity, Alamar Blue; four hours).
For `NC[C@@H](NC[C@@H]1CCCN1C[C@@H](CO)NC[C@@H](NCCC1CC2CCC1C2)c1ccccc1)c1ccccc1` (stereo partly shown), “potentiation of amikacin” read 1.6 fold (Escherichia coli; bacterial growth; 8 µM, fold shift of IC50, added: amikacin).

For quick reference, copied from above:
`CC[C@H](C)[C@H](NC(=O)[C@H](C)NC(=O)[C@H](CCC(=O)O)NC(=O)[C@H](CCC(=O)O)NC(=O)[C@H](CC(C)C)NC(=O)[C@H](CCCCN)NC(=O)[C@H](CCCCN)NC(=O)[C@H](CCSC)NC(=O)[C@H](CCC(=O)O)NC(=O)[C@H](Cc1ccc(O)cc1)NC(=O)[C@H](CCC(=O)O)NC(=O)[C@H](CC(C)C)NC(=O)[C@H](CC(=O)O)NC(=O)[C@H](CC(C)C)NC(=O)[C@H](Cc1ccccc1)NC(=O)[C@H](Cc1ccc(O)cc1)NC(=O)[C@@H](NC(=O)[C@H](CC(N)=O)NC(=O)[C@@H](NC(=O)[C@H](CCC(N)=O)NC(=O)[C@H](CC(=O)O)NC(=O)[C@H](CC(C)C)NC(=O)[C@@H](N)CO)[C@@H](C)CC)C(C)C)C(=O)N[C@@H](CCCCN)C(=O)N[C@@H](CCCCN)C(=O)N[C@@H](CC(C)C)C(=O)N[C@@H](CCC(=O)O)C(=O)N[C@@H](CCC(=O)O)C(=O)N[C@@H](C)C(=O)N[C@@H](Cc1ccc(O)cc1)C(=O)N[C@H](C(=O)N[C@@H](CC(=O)O)C(=O)N[C@@H](CC(C)C)C(=O)N[C@@H](CCCCN)C(=O)N[C@@H](CCC(=O)O)C(=O)N[C@@H](CC(C)C)C(=O)O)[C@@H](C)CC` has an IC50 of 0.298 µM (HCoV-OC43; viral infection, inhibitor, immunostaining; HCT-8; 2 days, dual mutations).
For `O=C(O)c1ccc(-c2cccc(C(=O)O)c2)cc1`, “MIC of ampicillin” read 256 µg/mL (Escherichia coli; bacterial growth, broth microdilution; expressing OXA-48; 64 µg/mL, added: ampicillin; MIC of ampicillin).
With `CCc1nc(N)nc(N)c1C#CC(C)c1cc2c(c(-c3ccc(CC(=O)O)cc3)c1)OCO2` (stereo not shown) the IC50 was greater than 200 µg/mL (MCF-10A; cytotoxicity, Alamar Blue; four hours).
